Experimental data pooled from the literature.
Lines come from different studies, so protocols differ. “And” joins repeats or separate records; there may be more than shown. Numbers after ± are the reported error.
Grik2: Glutamate receptor ionotropic, kainate 2 (Grik2, Rattus norvegicus, UniProt P42260)
UniProt P42260, sequence (whole entry, looked up): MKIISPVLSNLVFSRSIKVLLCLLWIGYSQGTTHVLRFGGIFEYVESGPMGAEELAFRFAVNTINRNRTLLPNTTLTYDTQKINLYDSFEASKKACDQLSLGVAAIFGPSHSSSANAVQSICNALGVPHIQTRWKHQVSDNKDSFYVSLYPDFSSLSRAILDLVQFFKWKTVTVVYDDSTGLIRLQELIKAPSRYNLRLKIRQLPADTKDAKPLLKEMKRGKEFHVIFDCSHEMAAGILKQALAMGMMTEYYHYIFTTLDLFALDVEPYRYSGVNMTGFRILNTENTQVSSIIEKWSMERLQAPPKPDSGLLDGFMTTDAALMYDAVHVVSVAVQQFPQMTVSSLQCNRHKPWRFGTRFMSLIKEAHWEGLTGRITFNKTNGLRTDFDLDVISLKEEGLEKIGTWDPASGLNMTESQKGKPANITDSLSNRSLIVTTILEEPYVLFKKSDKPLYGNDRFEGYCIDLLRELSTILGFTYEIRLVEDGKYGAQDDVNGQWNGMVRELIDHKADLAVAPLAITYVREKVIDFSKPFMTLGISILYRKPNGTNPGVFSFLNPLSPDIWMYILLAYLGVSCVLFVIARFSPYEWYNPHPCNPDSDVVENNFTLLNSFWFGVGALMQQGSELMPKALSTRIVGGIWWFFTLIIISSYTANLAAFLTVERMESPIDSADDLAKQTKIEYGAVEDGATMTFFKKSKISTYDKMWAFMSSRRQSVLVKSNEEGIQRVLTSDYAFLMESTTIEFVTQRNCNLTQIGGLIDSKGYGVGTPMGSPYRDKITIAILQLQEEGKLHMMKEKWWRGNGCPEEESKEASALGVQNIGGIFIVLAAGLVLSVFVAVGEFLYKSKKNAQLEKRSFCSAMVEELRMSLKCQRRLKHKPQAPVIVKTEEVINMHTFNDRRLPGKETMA
Kir3.1/Kir3.2: Kir3.1/Kir3.2 (Homo sapiens, UniProt P48051+P48549)
UniProt P48549, sequence (whole entry, looked up): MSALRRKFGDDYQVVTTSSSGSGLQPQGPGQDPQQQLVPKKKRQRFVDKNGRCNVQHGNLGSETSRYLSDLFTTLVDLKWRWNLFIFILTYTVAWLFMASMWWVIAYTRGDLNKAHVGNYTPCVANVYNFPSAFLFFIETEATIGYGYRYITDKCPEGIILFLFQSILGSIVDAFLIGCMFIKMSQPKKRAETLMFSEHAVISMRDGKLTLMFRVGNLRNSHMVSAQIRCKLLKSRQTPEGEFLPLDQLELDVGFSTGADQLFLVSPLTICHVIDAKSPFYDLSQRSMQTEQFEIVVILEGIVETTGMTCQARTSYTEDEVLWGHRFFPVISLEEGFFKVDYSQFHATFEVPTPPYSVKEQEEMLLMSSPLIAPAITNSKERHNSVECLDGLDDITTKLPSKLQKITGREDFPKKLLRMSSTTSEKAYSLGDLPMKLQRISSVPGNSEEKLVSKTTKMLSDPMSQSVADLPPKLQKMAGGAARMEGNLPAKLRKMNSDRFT
UniProt P48051, sequence (whole entry, looked up): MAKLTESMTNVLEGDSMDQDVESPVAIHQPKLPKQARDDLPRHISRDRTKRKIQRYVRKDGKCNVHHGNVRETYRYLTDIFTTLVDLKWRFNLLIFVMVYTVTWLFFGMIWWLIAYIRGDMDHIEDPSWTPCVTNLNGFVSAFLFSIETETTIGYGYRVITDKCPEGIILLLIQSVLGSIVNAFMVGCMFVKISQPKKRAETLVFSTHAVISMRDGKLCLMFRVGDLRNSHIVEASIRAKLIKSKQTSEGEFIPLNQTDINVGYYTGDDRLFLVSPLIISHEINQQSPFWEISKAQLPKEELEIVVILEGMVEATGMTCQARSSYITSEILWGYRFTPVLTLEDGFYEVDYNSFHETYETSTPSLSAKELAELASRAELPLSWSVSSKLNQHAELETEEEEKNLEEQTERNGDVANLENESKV
CYP2A6: Cytochrome P450 2A6 (CYP2A6, Homo sapiens, UniProt P11509)
Ephx2: Bifunctional epoxide hydrolase 2 (Ephx2, Mus musculus, UniProt P34914)
UniProt P34914, sequence (whole entry, looked up): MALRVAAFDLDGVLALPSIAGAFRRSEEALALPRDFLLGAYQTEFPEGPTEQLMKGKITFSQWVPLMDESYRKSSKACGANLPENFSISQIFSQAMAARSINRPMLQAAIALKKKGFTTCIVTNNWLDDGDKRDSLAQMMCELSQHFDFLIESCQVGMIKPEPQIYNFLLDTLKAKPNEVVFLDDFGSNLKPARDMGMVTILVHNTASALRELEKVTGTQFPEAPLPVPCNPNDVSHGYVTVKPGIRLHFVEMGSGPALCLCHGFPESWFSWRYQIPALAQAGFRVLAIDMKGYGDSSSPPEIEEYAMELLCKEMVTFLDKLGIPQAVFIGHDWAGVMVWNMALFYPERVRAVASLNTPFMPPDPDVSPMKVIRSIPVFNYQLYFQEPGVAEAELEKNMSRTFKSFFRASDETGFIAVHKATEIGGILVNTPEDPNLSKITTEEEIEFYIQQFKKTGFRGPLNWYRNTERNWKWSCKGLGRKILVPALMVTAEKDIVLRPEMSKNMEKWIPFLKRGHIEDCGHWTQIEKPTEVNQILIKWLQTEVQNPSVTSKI
EGLN1: Egl nine homolog 1 (EGLN1, Homo sapiens, UniProt Q9GZT9)
UniProt Q9GZT9, sequence (whole entry, looked up): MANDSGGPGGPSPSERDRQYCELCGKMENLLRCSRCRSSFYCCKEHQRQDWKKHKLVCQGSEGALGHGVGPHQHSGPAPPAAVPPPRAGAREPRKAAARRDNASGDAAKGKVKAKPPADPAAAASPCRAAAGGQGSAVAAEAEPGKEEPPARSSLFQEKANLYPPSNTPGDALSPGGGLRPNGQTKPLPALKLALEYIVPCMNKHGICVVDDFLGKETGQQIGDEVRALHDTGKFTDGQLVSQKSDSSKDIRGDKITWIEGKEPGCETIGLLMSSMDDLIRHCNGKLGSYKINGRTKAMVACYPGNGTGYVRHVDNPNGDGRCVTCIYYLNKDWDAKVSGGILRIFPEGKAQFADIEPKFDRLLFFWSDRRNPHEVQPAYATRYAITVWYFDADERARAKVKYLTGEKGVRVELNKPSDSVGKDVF
ALPI: Intestinal-type alkaline phosphatase (ALPI, Bos taurus, UniProt P19111)
BACE1: Beta-secretase 1 (BACE1, Homo sapiens, UniProt P56817)
UniProt P56817, sequence (whole entry, looked up): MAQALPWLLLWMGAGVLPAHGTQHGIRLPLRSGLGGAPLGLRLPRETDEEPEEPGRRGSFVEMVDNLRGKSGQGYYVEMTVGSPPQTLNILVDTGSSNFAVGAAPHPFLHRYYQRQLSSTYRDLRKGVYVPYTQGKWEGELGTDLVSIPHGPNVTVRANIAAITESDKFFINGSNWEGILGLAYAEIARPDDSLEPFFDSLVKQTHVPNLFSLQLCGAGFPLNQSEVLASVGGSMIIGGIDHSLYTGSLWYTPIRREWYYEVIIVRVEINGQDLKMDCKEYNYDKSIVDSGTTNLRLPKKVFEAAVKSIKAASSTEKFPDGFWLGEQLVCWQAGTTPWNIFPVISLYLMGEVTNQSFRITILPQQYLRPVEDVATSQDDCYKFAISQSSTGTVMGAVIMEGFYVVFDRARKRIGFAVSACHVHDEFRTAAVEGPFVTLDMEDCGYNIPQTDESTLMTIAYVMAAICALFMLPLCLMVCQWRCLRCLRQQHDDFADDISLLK
UniProt P0ABP8, sequence (whole entry, looked up): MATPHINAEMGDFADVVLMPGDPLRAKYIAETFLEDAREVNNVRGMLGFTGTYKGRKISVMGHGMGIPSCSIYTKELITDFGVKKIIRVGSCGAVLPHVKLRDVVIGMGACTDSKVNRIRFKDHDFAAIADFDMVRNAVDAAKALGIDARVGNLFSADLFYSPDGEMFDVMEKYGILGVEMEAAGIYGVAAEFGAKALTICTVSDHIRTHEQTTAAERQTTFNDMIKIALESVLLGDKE

SMILES	target	test	system	conditions	IC50
[Cl-].[Cl-].[Cl-].[Gd+3]	Collagenase 3 (MMP13, Homo sapiens, UniProt P45452)	enzyme activity, inhibitor		pH 7.5, with preincubation	4.81 µM
C[C@](N)(Cc1ccc(O)c(O)c1)C(=O)O	KDM4E (Homo sapiens, UniProt B2RXH2)	enzyme activity, inhibitor, fluorescence			4 µM
Fc1ccc(F)c(F)c1	Neuronal acetylcholine receptor; alpha4/beta2 (Homo sapiens, UniProt P17787+P43681)	ion current, inhibitor, two-electrode voltage clamp	Xenopus oocytes	added: ACh 1 mM	0.0022 atm
NCCCCCCCCCCCCN	Grin1/Grin2a/Grin2b, channel binding site (Rattus norvegicus, UniProt P35439+Q00959+Q00960)			pH 7	7.05 ± 2.38 µM
Cc1nc2ccccc2n1Cc1ccc(C(=O)NO)cc1	HDAC7 (Homo sapiens, UniProt Q8WUI4)			concentration not given	0.0872 µM
O=C(NNC(=O)c1ccc(CNS(=O)(=O)c2ccc(F)c(Cl)c2)cc1)c1ccccc1	Glutamate NMDA receptor; Grin1/Grin2a (Grin1/Grin2a, Rattus norvegicus, UniProt P35439+Q00959, P527A)	ion current, two-electrode voltage clamp		oocytes	0.48 µM
CN1CCN(CCCN2c3ccccc3Sc3ccc(C(F)(F)F)cc32)CC1	USP8 (Homo sapiens, UniProt P40818)				> 114 µM
COc1ccccc1-n1c(/C=C/c2ccccc2[N+](=O)[O-])nc2ccccc2c1=O	Grik2	ion current, inhibitor, two-electrode voltage clamp	Xenopus oocytes	concanavalin A pretreatment, added: 100 µM glutamate	> 300 µM
O=C(OC(C(F)(F)F)C(F)(F)F)N1CC(OC(c2ccc(F)cc2)c2ccc(F)cc2)C1	ABHD6 (Homo sapiens, UniProt Q9BV23)	enzyme activity, inhibitor, fluorescence			0.0601 µM
CC(C)Cn1c(=O)n(C)c(=O)c2[nH]cnc21	phosphodiesterase bovine brain	enzyme activity, inhibitor		pH 7.4, 30 °C, calmodulin-activated, added: cAMP 0.01875 mM	5.6 µM
N#Cc1ccc(OCC(O)Cn2c(=N)n(Cc3ccccc3)c3ccccc32)cc1 (stereo not drawn)	Kir3.1/Kir3.2	ion flux			5.27 µM
C=C(C)CCOP(=O)(O)OP(=O)(O)OP(=O)(O)OC[C@H]1O[C@@H](n2cnc3c(N)ncnc32)[C@H](O)[C@@H]1O	Aurora kinase B (AURKB, Homo sapiens, UniProt Q96GD4)	enzyme activity, inhibitor, HotSpot kinase		added: ATP 1 µM	1.8 µM
CC(C)(C)C1=CC(=O)c2c(ccc(C(C)(C)C)c2O)C1=O	CYP2A6	enzyme activity, inhibitor	supersomes	37 °C, added: coumarin 5 µM	no inhibition
C[C@]12C[C@@H]3C[C@](C)(C1)C[C@@](NC(=O)Nc1ccc(C(=O)N4CCC[C@H](C(=O)NCCCCCCC(=O)NO)C4)cc1)(C3)C2	Ephx2	enzyme activity, inhibitor, fluorescence			0.0025 µM
Cc1ccc(-c2ccc(Cn3cccc(O)c3=S)cc2)cc1	HDAC1 (Homo sapiens, UniProt Q13547)	enzyme activity, inhibitor, SAMDI mass spectrometry			> 10 µM
O=C(O)c1cccc(-n2c(/C=C/c3ccccc3[N+](=O)[O-])nc3ccccc3c2=O)c1	Grik2	ion current, inhibitor, two-electrode voltage clamp	Xenopus oocytes	concanavalin A pretreatment, added: 100 µM glutamate	> 300 µM
Nc1nc2c(ncn2[C@@H]2O[C@@H]3COP(=O)(O)O[C@H]3[C@H]2O)c(=O)[nH]1	Cyclic nucleotide-gated potassium channel (Spirochaeta thermophila, UniProt G0GA88)	channel activity, inhibitor, single-channel bilayer recording		100 mV, added: cAMP 100 µM	16 µM and 15 µM
O=C(O)CCC(=O)NNC(=O)c1cc2ccccc2cn1	EGLN1	inhibitor, AlphaScreen		bimodal curve, rough estimate, added: 2 µM 2-oxoglutarate	18.4 µM
O=C1NC2=C(C(=O)N(c3ccc(F)cc3)C2)C(c2ccc(O)cc2)N1 (stereo not drawn)	ALPI	enzyme activity, inhibitor, absorbance		pH 9.5	2.5 µM
CC12CC3CC(C)(C1)CC(Nc1c(Nc4ccc(C(=O)N5CCC[C@H](C(=O)NCCCCCCC(=O)NO)C5)cc4)c(=O)c1=O)(C3)C2	Ephx2	enzyme activity, inhibitor, fluorescence			23.2 µM
COc1ccccc1-n1c(/C=C/c2cccc([N+](=O)[O-])c2)nc2ccccc2c1=O	Grik2	ion current, inhibitor, two-electrode voltage clamp	Xenopus oocytes	concanavalin A pretreatment, added: 100 µM glutamate	> 300 µM
COc1cc(/C=C/C(C)=N/O)ccc1OCC(=O)Nc1cccc(C)c1	PPARG (Homo sapiens, UniProt P37231)	ligand displacement, TR-FRET			9.24 µM
O=C(Nc1ccc(C(=O)Nc2ccc(C(=O)Nc3ccc(S(=O)(=O)O)c4cc(S(=O)(=O)O)cc(S(=O)(=O)O)c34)cc2)cc1)Nc1ccc(C(=O)Nc2ccc(C(=O)Nc3ccc(S(=O)(=O)O)c4cc(S(=O)(=O)O)cc(S(=O)(=O)O)c34)cc2)cc1	SETD7 (Homo sapiens, UniProt Q8WTS6)	enzyme activity, inhibitor			1.9 µM
CSc1nnc2[nH]nc(C)c2n1	deoD (Escherichia coli, UniProt P0ABP8)	phosphorolysis, inhibitor		pH 7.0, 25 °C, added: 7-methylguanosine 131 µM, phosphate 50 mM	~30 µM
Cc1ncc([N+](=O)[O-])n1CC(C)O (stereo not drawn)	CYP2A6	enzyme activity, inhibitor	human liver microsomes	30 min, added: coumarin	> 500 µM
C/C(=C\CC/C(C)=C/CC[C@]1(C)CCc2cc(O)cc(C)c2O1)CC/C=C(\C)C(=O)O	PTGS1 (Homo sapiens, UniProt P23219)	enzyme activity, inhibitor, ELISA		with preincubation	4 µM

SMILES	target	test	system	conditions	IC50
[H]/N=C(\N/C(=N/[H])NCCCCCCNC(=N)NC(=N)Nc1ccc(Cl)cc1)Nc1ccc(Cl)cc1	enhanced intracellular survival protein (Kocuria rhizophila, UniProt A0AAX2SEI6)				17 ± 4 µM
N#Cc1c(C(F)(F)F)cc(-c2ccc(Cl)cc2)nc1SCC(=O)Nc1ncccn1	TAAR1 (Homo sapiens, UniProt Q96RJ0)				0.0084 µM
COC(=O)C(Cc1ccc(CCCC(=O)NCCC(=O)Nc2ccc3nc(C)sc3c2)cc1)C(=O)OC	LDHA (Homo sapiens, UniProt P00338)	inhibitor, NADH fluorescence		pyruvate competition, added: 150 µM NADH, 200 µM pyruvate	> 200 µM
CC(=O)N[C@@H](CCCCNC(=O)CSCCNC(=O)CCNC(=O)[C@H](O)C(C)(C)COP(=O)(O)OP(=O)(O)OC[C@H]1O[C@@H](n2cnc3c(N)ncnc32)[C@H](O)[C@@H]1OP(=O)(O)O)C(N)=O	EP300 (Homo sapiens, UniProt Q09472)	enzyme activity, inhibitor			0.0345 µM
Oc1cc(O)c2c(c1)OC(O)(c1ccc(O)c(O)c1)C(O)C2 (stereo not drawn)	mRNA triphosphatase Cet1 (Trypanosoma brucei brucei, UniProt Q582T2)	enzyme activity, Transcreener ADP fluorescence polarization		3 h, added: 50 µM ATP	0.91 µM
NCCCCCO[C@H]1O[C@H](COS(=O)(=O)O)[C@@H](O[C@@H]2O[C@@H](C(=O)O)[C@@H](O[C@H]3O[C@H](COS(=O)(=O)O)[C@@H](O[C@@H]4O[C@@H](C(=O)O)[C@@H](O)[C@H](O)[C@H]4O)[C@H](O)[C@H]3NS(=O)(=O)O)[C@H](O)[C@H]2O)[C@H](O)[C@H]1NS(=O)(=O)O	BACE1	enzyme activity, inhibitor, FRET		pH 4.5	3.7 µM
CC(C)C[C@H](NC(=O)[C@H](CC(N)=O)NC(=O)[C@H](CC(C)C)NC(=O)[C@@H](NC(=O)[C@@H](NC(=O)[C@@H]1CCCN1C(=O)[C@H](CCCNC(=N)N)NC(=O)[C@H](CCCCN)NC(=O)[C@@H]1CCCN1C(=O)[C@H](CCCNC(=N)N)NC(=O)[C@H](CCCNC(=N)N)NC(=O)[C@H](CCCNC(=N)N)NC(=O)[C@H](CCCNC(=N)N)NC(=O)[C@H](CCC(N)=O)NC(=O)[C@H](CCCNC(=N)N)NC(=O)[C@H](CCCNC(=N)N)NC(=O)[C@H](CCCCN)NC(=O)[C@H](CCCCN)NC(=O)[C@H](CCCNC(=N)N)NC(=O)CNC(=O)[C@@H](N)Cc1ccc(O)cc1)[C@@H](C)O)[C@@H](C)O)C(=O)N[C@@H](Cc1ccccc1)C(N)=O	Mitogen-activated protein kinase 10, isoform alpha-1 (MAPK10, Homo sapiens, UniProt P53779)	kinase activity, inhibitor		added: ATF2 substrate	0.027 ± 0.015 µM
O=S(=O)(C1CC2OC1C(c1ccc(O)cc1)=C2c1ccc(O)cc1)N(CC(F)(F)F)c1ccc(Cl)cc1 (stereo not drawn)	ESR2 (Homo sapiens, UniProt Q92731)	reporter gene, antagonist, luciferase			4.08 µM
O=C(O)c1cc(=O)c(O)co1	EGLN1	ODDD peptide hydroxylation, inhibitor, MALDI-TOF MS		pH 7.00, 37.0 °C, added: 2-oxoglutarate 10 µM	30 µM
Cc1ccc(C(=O)Nc2ccc(S(=O)(=O)O)c3cc(S(=O)(=O)O)cc(S(=O)(=O)O)c23)cc1NC(=O)c1cccc(NC(=O)Nc2cccc(C(=O)Nc3cc(C(=O)Nc4ccc(S(=O)(=O)O)c5cc(S(=O)(=O)O)cc(S(=O)(=O)O)c45)ccc3C)c2)c1	MDH2 (Sus scrofa, UniProt P00346)	enzyme activity, inhibitor			> 63 µM
[Cl-].[Cl-].[Zn+2]	HVCN1 (Homo sapiens, UniProt Q96D96, E119A)	proton current, inhibitor, whole-cell voltage clamp	human cells	pH 6.5, test pulse 120 mV	7.55 µM
COc1cccc(Cn2c(=N)n(CC(O)COc3ccc(C)cc3)c3ccccc32)c1 (stereo not drawn)	Kir3.1/Kir3.2	ion flux			4.2 µM
NC1CCC(c2ccc(Cl)c(Cl)c2)c2ccccc21 (racemic)	Slc6a4 (Mus musculus, UniProt Q60857)				0.63 µM
O=C1NC2=C(C(=O)N(Cc3ccccc3)C2)C(c2ccccc2O)N1 (stereo not drawn)	ALPI	enzyme activity, inhibitor, absorbance		pH 9.5	7.68 µM
O=C(O)/C=C\C(=O)NNC(=O)c1ccc2ccccc2n1	EGLN1	inhibitor, AlphaScreen		bimodal curve, rough estimate, added: 2 µM 2-oxoglutarate	> 300 µM
COC(=O)c1cc(CN2CCN(C(=N)N)CC2)cc(C(=O)N2CCN(C(=O)c3ccc(C(=N)N)cc3)CC2)c1	KDM1A (Homo sapiens, UniProt O60341)	enzyme activity, inhibitor			1 to 5 µM
OC(c1cc(-c2ccc(Cl)cc2)nc2ccccc12)C1CCCCN1 (stereo not drawn)	BACE1	inhibitor, FRET		pH 4.5	21.3 ± 6.4 µM
Cc1cc(C(C)Nc2ccccc2)c2nc(N3CCOCC3)cc(=O)n2c1 (stereo not drawn)	PIK3CA (Homo sapiens, UniProt P42336)	enzyme activity, inhibitor			0.77 µM
Nc1ccc(S(=O)(=O)Nc2ccc3c(c2)B(O)OC3)cc1	Leucine--tRNA ligase (Staphylococcus aureus, UniProt Q2FXH2)	enzyme activity, inhibitor			3 ± 1.2 µM
Cc1cc(Cc2cc(C)cc(C(C)(C)C)c2O)c(O)c(Cc2cc(C)cc(C(C)(C)C)c2O)c1	BACE1	enzyme activity, inhibitor, FRET		pH 4.5	292 µM
N=c1n(Cc2ccc(Cl)cc2)c2ccccc2n1CC(O)COc1ccccc1 (stereo not drawn)	Kir3.1/Kir3.2	ion flux			4.8 µM
COC(=O)CC[C@@H](C)[C@H]1CC[C@H]2[C@@H]3CC[C@@H]4C[C@H](NC(=O)CCCCCC(=O)O)CC[C@]4(C)[C@H]3CC[C@]12C	human 20S proteasome	chymotrypsin-like activity, inhibitor		added: PA28	> 10 µM
O=C(CCCCCCNC(=O)[C@H]1CCCN(C(=O)c2ccc(NC(=O)Nc3ccc(OC(F)(F)F)c(F)c3)c(F)c2)C1)NO	Ephx2	enzyme activity, inhibitor, fluorescence			0.0029 µM
COc1ccc(C2Nc3ccc(C(=O)O)cc3C3C=CCC32)cc1 (stereo not drawn)	Sonic hedgehog protein, N-terminal signaling domain (Homo sapiens, UniProt Q15465)	heparin binding, inhibitor, fluorescent heparin competition, item: ShhN	solid-phase		23 µM
CSCC[C@H](NC(=O)[C@H](CC(C)C)NC(=O)[C@@H](Cc1ccccc1)NC(=O)CNC(=O)[C@@H](NC(=O)[C@H](C)NC(=O)[C@H](Cc1c[nH]c2ccccc12)NC(=O)[C@H](CCC(N)=O)NC(=O)[C@H](CC(N)=O)NC(=O)CNC(=O)[C@H](Cc1ccc(O)cc1)NC(=O)[C@H](CCCNC(=N)N)NC(=O)[C@H](CCC(N)=O)NC(=O)[C@@H]1CCC(=O)N1)C(C)C)C(N)=O	NMBR (Homo sapiens, UniProt P28336)	inositol phosphate generation, antagonist	Balb 3T3 expressing NMBR	added: neuromedin B 1 nM	> 10 µM

Repeated from above:
SMILES	target	test	system	conditions	IC50
C[C@]12C[C@@H]3C[C@](C)(C1)C[C@@](NC(=O)Nc1ccc(C(=O)N4CCC[C@H](C(=O)NCCCCCCC(=O)NO)C4)cc1)(C3)C2	Ephx2	enzyme activity, inhibitor, fluorescence			0.0025 µM
Cc1ccc(-c2ccc(Cn3cccc(O)c3=S)cc2)cc1	HDAC1 (Homo sapiens, UniProt Q13547)	enzyme activity, inhibitor, SAMDI mass spectrometry			> 10 µM
O=C(O)c1cccc(-n2c(/C=C/c3ccccc3[N+](=O)[O-])nc3ccccc3c2=O)c1	Grik2	ion current, inhibitor, two-electrode voltage clamp	Xenopus oocytes	concanavalin A pretreatment, added: 100 µM glutamate	> 300 µM
Nc1nc2c(ncn2[C@@H]2O[C@@H]3COP(=O)(O)O[C@H]3[C@H]2O)c(=O)[nH]1	Cyclic nucleotide-gated potassium channel (Spirochaeta thermophila, UniProt G0GA88)	channel activity, inhibitor, single-channel bilayer recording		100 mV, added: cAMP 100 µM	16 µM and 15 µM
O=C(O)CCC(=O)NNC(=O)c1cc2ccccc2cn1	EGLN1	inhibitor, AlphaScreen		bimodal curve, rough estimate, added: 2 µM 2-oxoglutarate	18.4 µM
O=C1NC2=C(C(=O)N(c3ccc(F)cc3)C2)C(c2ccc(O)cc2)N1 (stereo not drawn)	ALPI	enzyme activity, inhibitor, absorbance		pH 9.5	2.5 µM
CC12CC3CC(C)(C1)CC(Nc1c(Nc4ccc(C(=O)N5CCC[C@H](C(=O)NCCCCCCC(=O)NO)C5)cc4)c(=O)c1=O)(C3)C2	Ephx2	enzyme activity, inhibitor, fluorescence			23.2 µM
